Measurements gathered from unrelated publications.
Parts stem from different laboratories: compare values within a part only. Several values in a cell are separate wells, animals, samples, runs or records.
UniProt P08588, sequence (whole entry, looked up): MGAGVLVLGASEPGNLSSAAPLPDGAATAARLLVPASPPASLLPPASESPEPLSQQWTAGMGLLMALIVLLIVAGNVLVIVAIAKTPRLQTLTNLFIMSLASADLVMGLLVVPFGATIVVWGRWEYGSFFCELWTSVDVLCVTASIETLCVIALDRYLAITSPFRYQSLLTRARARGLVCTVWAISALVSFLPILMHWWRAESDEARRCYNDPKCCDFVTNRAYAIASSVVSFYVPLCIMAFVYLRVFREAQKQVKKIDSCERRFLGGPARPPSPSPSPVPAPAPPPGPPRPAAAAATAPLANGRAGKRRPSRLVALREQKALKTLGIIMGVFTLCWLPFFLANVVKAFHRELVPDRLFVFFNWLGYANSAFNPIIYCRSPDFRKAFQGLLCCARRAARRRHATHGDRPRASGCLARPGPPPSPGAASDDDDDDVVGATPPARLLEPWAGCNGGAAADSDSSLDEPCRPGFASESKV
UniProt P08173, sequence (whole entry, looked up): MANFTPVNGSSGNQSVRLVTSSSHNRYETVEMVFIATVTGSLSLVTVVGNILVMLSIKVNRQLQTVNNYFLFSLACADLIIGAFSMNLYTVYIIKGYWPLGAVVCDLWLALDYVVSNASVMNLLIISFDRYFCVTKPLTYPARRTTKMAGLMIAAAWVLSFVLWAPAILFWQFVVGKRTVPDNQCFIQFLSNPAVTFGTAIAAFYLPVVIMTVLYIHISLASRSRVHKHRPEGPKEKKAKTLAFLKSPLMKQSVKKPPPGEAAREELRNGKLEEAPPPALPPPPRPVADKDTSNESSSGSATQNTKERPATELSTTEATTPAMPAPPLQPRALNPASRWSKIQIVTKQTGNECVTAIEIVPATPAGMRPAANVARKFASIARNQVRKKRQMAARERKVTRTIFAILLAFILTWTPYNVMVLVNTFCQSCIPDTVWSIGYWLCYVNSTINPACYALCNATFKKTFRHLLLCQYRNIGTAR
UniProt P13945, sequence (whole entry, looked up): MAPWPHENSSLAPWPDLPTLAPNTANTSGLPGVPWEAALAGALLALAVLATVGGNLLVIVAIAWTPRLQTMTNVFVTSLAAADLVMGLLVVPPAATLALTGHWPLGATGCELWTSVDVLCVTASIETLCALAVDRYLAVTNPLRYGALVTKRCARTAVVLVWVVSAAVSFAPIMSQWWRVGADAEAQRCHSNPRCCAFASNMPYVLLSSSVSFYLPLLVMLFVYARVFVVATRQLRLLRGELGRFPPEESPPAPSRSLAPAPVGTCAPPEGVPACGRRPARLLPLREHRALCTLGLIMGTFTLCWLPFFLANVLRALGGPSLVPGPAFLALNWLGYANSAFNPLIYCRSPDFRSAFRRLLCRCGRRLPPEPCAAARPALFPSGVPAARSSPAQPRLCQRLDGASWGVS
UniProt P35348, sequence (whole entry, looked up): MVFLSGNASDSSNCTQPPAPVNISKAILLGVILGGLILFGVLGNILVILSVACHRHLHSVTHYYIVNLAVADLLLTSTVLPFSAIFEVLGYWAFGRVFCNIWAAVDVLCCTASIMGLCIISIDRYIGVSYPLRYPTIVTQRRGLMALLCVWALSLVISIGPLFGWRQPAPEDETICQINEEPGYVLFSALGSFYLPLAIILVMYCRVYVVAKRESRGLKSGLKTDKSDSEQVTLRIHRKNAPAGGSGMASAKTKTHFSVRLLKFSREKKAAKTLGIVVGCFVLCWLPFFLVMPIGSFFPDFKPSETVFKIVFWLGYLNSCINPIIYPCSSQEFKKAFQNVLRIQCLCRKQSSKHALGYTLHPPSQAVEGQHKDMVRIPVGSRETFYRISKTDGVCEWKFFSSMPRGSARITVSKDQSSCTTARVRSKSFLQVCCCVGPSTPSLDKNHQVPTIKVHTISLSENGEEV
UniProt P18089, sequence (whole entry, looked up): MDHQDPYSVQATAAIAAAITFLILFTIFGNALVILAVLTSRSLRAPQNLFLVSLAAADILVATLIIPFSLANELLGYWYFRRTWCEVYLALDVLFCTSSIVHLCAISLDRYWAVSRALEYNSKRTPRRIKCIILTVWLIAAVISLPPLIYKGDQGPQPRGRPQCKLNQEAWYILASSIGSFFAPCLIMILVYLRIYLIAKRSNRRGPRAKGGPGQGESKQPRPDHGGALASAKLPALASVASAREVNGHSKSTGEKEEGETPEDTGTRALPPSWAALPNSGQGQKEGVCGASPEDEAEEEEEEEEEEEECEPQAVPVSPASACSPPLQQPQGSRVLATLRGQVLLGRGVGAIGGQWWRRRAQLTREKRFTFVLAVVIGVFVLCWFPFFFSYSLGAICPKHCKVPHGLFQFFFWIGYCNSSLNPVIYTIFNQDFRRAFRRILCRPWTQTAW
UniProt P25021, sequence (whole entry, looked up): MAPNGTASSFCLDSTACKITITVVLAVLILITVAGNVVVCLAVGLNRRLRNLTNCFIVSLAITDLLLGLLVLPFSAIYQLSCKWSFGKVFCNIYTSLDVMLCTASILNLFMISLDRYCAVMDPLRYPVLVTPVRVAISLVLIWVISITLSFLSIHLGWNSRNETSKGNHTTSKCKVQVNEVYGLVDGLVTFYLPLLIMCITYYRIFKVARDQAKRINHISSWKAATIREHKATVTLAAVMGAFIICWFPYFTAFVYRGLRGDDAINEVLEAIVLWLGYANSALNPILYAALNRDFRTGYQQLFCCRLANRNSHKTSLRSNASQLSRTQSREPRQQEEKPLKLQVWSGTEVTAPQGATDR
UniProt P35462, sequence (whole entry, looked up): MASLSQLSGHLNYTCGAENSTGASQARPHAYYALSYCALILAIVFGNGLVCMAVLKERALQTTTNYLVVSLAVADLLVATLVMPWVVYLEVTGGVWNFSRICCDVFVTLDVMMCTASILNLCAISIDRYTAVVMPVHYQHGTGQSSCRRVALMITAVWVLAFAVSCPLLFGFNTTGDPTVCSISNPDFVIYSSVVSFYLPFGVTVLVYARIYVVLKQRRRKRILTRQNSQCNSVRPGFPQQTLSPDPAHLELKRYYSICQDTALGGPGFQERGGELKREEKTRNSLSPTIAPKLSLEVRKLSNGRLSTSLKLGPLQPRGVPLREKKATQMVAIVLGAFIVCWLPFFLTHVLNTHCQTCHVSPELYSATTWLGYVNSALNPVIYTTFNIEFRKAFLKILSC
UniProt P21728, sequence (whole entry, looked up): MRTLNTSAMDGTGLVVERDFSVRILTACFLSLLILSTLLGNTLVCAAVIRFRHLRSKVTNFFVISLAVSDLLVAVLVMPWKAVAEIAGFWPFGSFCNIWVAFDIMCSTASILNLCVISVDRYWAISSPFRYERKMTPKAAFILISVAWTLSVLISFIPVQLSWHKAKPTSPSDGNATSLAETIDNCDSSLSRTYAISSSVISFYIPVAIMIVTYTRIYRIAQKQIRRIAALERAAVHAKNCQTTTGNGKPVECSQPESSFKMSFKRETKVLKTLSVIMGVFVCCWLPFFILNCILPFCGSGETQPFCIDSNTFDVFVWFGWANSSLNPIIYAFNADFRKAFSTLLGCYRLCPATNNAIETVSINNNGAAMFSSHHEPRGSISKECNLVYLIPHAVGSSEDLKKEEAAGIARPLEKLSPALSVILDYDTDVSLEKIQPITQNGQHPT

Study 1
SMILES: CCS(=O)(=O)c1cc2cc(C[C@](O)(CC(C)(C)c3ccc(F)cc3C(N)=O)C(F)(F)F)[nH]c2cn1
Read-out: ligand displacement
Concentration: 10 µM
target	inhibition
CHRM4 (Homo sapiens, UniProt P08173)	13.1%
ADRA2B (Homo sapiens, UniProt P18089)	24.7%
ADRB1 (Homo sapiens, UniProt P08588)	-14.1%
DRD1 (Homo sapiens, UniProt P21728)	-20.9%
HRH2 (Homo sapiens, UniProt P25021)	12.3%
DRD3 (Homo sapiens, UniProt P35462)	7.81%
ADRA1A (Homo sapiens, UniProt P35348)	-0.31%
ADRB3 (Homo sapiens, UniProt P13945)	13%

Study 2
Target: Beta-1 adrenergic receptor (ADRB1, Homo sapiens, UniProt P08588)
Action: antagonist
SMILES	IC50 [µM]
COc1ccccc1N1CCN(C(C)C(N)=O)CC1 (stereo not shown)	≥ 100
Cc1cccc2ncc(-c3cccc(NC4CNC4)n3)n12	≥ 100
N#Cc1ccc(OCC(O)CN2CCN(c3ncnc4ccsc34)CC2)cc1 (stereo not shown)	≥ 100
COc1ccccc1N1CCN([S+](=O)([O-])c2cc(C)c(C)cc2OC)CC1	≥ 100

Study 3
SMILES: CC(=O)N[C@@H](Cc1c[nH]c2ccccc12)C(=O)N[C@@H](CCC(=O)C=[N+]=[N-])C(=O)OC(C)C
Species: C57BL/6 CES1-/- mice, EL4 tumour
Sample: EL4 tumour
Route: subcutaneous
Dose: 0.3 mg/kg/day DON equivalent
Time: 5 days
assay	conditions	scale	metabolite peak intensity
UPLC-MS/MS metabolomics, measured: glucosamine 6-phosphate	normalised to tissue mass		8.01e+07 a.u. and 9.86e+07 a.u. and 9.24e+07 a.u. and 1.01e+08 a.u. and 8.8e+07 a.u. and 6.91e+07 a.u.
LC-MS/MS metabolomics, measured: phenylalanine		higher = more metabolite	1.94e+09 a.u. and 2.49e+09 a.u. and 2.27e+09 a.u. and 2.48e+09 a.u. and 1.99e+09 a.u. and 2.24e+09 a.u.
UPLC-MS/MS metabolomics, measured: N-acetylglutamine	normalised to tissue mass	higher = more metabolite	5.16e+06 a.u. and 5.17e+06 a.u. and 4.43e+06 a.u. and 3.15e+06 a.u. and 4.77e+06 a.u. and 4.14e+06 a.u.
LC-MS/MS metabolomics, measured: mannose		higher = more metabolite	5.32e+06 a.u. and 5.37e+06 a.u. and 5.42e+06 a.u. and 6.52e+06 a.u. and 5.01e+06 a.u. and 4.24e+06 a.u.
UPLC-MS/MS, measured: N-acetyl-beta-alanine			6.99e+06 a.u. and 8.58e+06 a.u. and 7.41e+06 a.u. and 6.81e+06 a.u. and 9.69e+06 a.u. and 1.08e+07 a.u.
LC-MS/MS metabolomics, measured: 3-amino-2-piperidone	normalised to tissue mass	higher = more metabolite	1.43e+06 a.u. and 778000 a.u. and 700000 a.u. and 794000 a.u. and 996000 a.u. and 953000 a.u.

Study 4
Target: Calcium/calmodulin-dependent protein kinase type II subunit alpha (CAMK2A, Homo sapiens, UniProt Q9UQM7)
UniProt Q9UQM7, sequence (whole entry, looked up): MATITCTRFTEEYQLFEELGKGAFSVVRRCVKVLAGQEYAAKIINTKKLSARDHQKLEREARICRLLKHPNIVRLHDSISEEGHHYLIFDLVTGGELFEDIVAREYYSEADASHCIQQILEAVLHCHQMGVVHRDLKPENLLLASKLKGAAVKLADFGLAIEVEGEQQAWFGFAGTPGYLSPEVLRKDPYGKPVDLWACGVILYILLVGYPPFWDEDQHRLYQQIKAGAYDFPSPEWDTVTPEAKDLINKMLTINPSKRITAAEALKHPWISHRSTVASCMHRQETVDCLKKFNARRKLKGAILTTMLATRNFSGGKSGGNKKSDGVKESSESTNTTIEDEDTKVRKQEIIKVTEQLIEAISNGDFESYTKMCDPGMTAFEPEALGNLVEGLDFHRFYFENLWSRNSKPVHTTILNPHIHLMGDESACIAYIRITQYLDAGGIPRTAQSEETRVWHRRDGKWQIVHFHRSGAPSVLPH
Read-out: enzyme activity
Action: inhibitor
Concentration: 10 µM
SMILES	inhibition
C=CC(=O)N1CCC([C@@H]2CCNc3c(C(N)=O)c(-c4ccc(Oc5ccccc5)cc4)nn32)CC1	-11%
COc1ccc(C2C(=O)c3ccccc3C2=O)cc1	-7%
C=C(CC[C@@H](C(=O)O)[C@H]1[C@H](O)C[C@@]2(C)C3=CC[C@@H](C(=C)C)[C@](C)(CCC(=O)O)C3=CC[C@]12C)C(C)C	-13%
O=C(CCCN1CCC(O)(c2ccc(Cl)cc2)CC1)c1ccc(F)cc1	-14%

Excerpt of the above (study 1):
target	inhibition
HRH2 (Homo sapiens, UniProt P25021)	12.3%
